Measurements from different studies.
Protocols differ between the studies behind these lines. Numbers after ± are the reported error.

SMILES	target or system	test	system	conditions	measurement	value
CCCCCn1cc(C(=O)c2cccc3c2CC(C)(C)C3)c2ccccc21	CNR1 (Homo sapiens, UniProt P21554, F177A)	cAMP, agonist, BRET			EC50	0.0182 µM
O=S(=O)(c1ccc(-c2ccc3ncnc(Nc4ccc(OCc5cccc(F)c5)c(Cl)c4)c3c2)cc1)N1CCNCC1	Leishmania major	intracellular amastigote growth, luciferase	RAW264.7 macrophages		EC50	0.8 µM
O=[N+]([O-])CC(c1ccco1)c1c(-c2ccccc2)[nH]c2ccccc12 (centres unmarked)	CNR1 (Homo sapiens, UniProt P21554, L252A)	G protein activation, agonist, BRET			EC50	> 1000 µM
CCN(CC)C(=O)c1ccc(C(c2cccc(O)c2)N2CC(C)N(Cc3ccccc3)CC2C)cc1 (centres unmarked)	OPRD1 (Homo sapiens, UniProt P41143, D210N)	agonist			EC50	5.7e-05 µM
Cc1ccc2c(C(C[N+](=O)[O-])c3cccs3)c(-c3ccccc3)[nH]c2c1 (centres unmarked)	CNR1 (Homo sapiens, UniProt P21554, I169A)	G protein activation, agonist, BRET			EC50	0.25 µM
CCC[C@H](C(=O)c1ccccc1)N1CCCC1	SLC6A3 (Homo sapiens, UniProt Q01959, S149A)	transporter uptake, inhibitor, radiometric			Ki	2.34 µM
CC(C)CC(C(=O)N1CC2(CC1C#N)C(=O)Nc1ccccc12)N(C)C(=O)c1cc2c(F)cc(F)c(F)c2[nH]1 (centres unmarked)	Beta-secretase 1 (BACE1, Homo sapiens, UniProt P56817)				IC50	> 100 µM
CCN(CC)C(=O)[C@@H]1C=C2c3cccc4c3c(cn4C(=O)c3ccco3)C[C@H]2N(C)C1	ADRB2 (Homo sapiens, UniProt P07550)	ligand displacement, radioligand			Ki	> 10 µM
COc1ccccc1C(C[N+](=O)[O-])c1c(-c2ccccc2)[nH]c2ccccc12 (centres unmarked)	CNR1 (Homo sapiens, UniProt P21554, I245M)	G protein activation, agonist, BRET			EC50	0.59 µM
O=C1NC2(CC2)COc2ncc(F)cc2[C@H]2COCCN2c2ccn3ncc1c3n2			Sprague-Dawley rat, male, blood	oral, 10 mg/kg/day, 4 weeks, end of treatment, subacute toxicity	mean corpuscular haemoglobin	20.5 ± 0.5 pg
O=C(O)CCn1c(=O)oc2cc(Cl)c(Cl)cc21	CHRM1 (Homo sapiens, UniProt P11229)	agonist			EC50	> 50.1 µM
